Experimental data gathered from unrelated publications.
Lines come from different studies, so protocols differ. In brackets after ≈: the same amount, converted by molar mass.

O=c1c(-c2cnn(-c3ccccc3)c2)c(C(F)(F)F)oc2c(O)c(O)ccc12  kinetic solubility (aqueous buffer; pH 7.4): 14.6 µM (≈ 5.67 µg/mL)
O=C(CNC(=O)c1cccc(NC2=NCCCO2)c1)NC[C@H](NC(=O)c1c(Cl)cc(-c2ccccc2)cc1Cl)C(=O)O  kinetic solubility (aqueous buffer; pH 7.4): 38 µM (≈ 23.3 µg/mL)
CC[C@H](C)[C@@H]1NC(=O)[C@H](Cc2ccc(O)cc2)NC(=O)CCSCc2cccc(c2)CSCCNC(=O)[C@H](Cc2c[nH]cn2)NC(=O)[C@H](Cc2ccc(O)cc2)NC(=O)[C@H](CC(=O)O)NC(=O)[C@H](Cc2ccc(O)cc2)NC(=O)[C@H](CC(C)C)NC(=O)[C@H](CCCNC(=N)N)NC1=O  kinetic solubility (PBS; pH 7.4): 35 µM (≈ 48.7 µg/mL)
O=C(Nc1cc(C(F)F)ns1)Nc1cc(F)ncc1CO  kinetic solubility (PBS; 24 h, pH 7.4): 97.3 µM (≈ 31 µg/mL)
Cc1nc2ccc(S(=O)(=O)n3nc(SCc4ccc(Cl)cc4)nc3N)cc2s1  kinetic solubility (PBS; 24 h, pH 7.4): 1.3 µM (≈ 0.588 µg/mL)
CC[C@H](C)[C@@H]1NC(=O)[C@H](Cc2ccc(O)cc2)NC(=O)CSC[C@@H](C(N)=O)NC(=O)[C@H](CC(N)=O)NC(=O)[C@H](Cc2c[nH]cn2)NC(=O)[C@H](Cc2ccc(O)cc2)NC(=O)[C@H](CC(=O)O)NC(=O)[C@H](Cc2ccc(F)cc2)NC(=O)[C@H](CC(C)C)NC(=O)[C@H](CCCNC(=N)N)NC1=O  kinetic solubility (PBS; pH 7.4): 186 µM (≈ 260 µg/mL)
O=C(CNC(=O)c1cccc(NC2=NCCCN2)c1)NC[C@H](NC(=O)c1c(Cl)cc(-c2ccccc2)cc1Cl)C(=O)O  kinetic solubility (aqueous buffer; pH 7.4): 78 µM (≈ 47.7 µg/mL)
CCCc1cc2cc(-n3nc(C)c4c3CC(C)(C)CC4=O)cc(N[C@H]3CCOC3)c2c(=O)[nH]1  kinetic solubility (aqueous buffer): < 1.56 µM
O=C(N1CCCCC1)C12CC(c3ccccc3)(C1)C2(F)F  kinetic solubility (PBS; 2 h, pH 7.4, 25 °C): 91 µM (≈ 26.5 µg/mL)
CC(C)(O)Cn1nc(-c2ccccc2)c2c(Cl)c(-c3ccccc3)nnc21  kinetic solubility (PBS; 2 h, pH 7.4): 32 µM (≈ 12.1 µg/mL)
O=C(c1ccc(-c2ccccc2)cc1)N1CCCCC1  kinetic solubility (PBS; 2 h, pH 7.4, 25 °C): 67 µM (≈ 17.8 µg/mL)
CC[C@H](C)[C@@H]1NC(=O)[C@H](Cc2ccccc2)NC(=O)CSC[C@@H](C(N)=O)NC(=O)[C@H](CC(N)=O)NC(=O)[C@H](Cc2c[nH]cn2)NC(=O)[C@H](Cc2ccc(O)cc2)NC(=O)[C@H](C)NC(=O)[C@H](Cc2ccc(F)cc2)NC(=O)[C@H](CC(C)C)NC(=O)[C@H](CCCCN)NC1=O  kinetic solubility (PBS; pH 7.4): > 220 µM
Cc1nn(C)c2nnc(-c3ccccc3)c(Cl)c12  kinetic solubility (PBS; 2 h, pH 7.4): 105 µM (≈ 27.2 µg/mL)

A few entries again:
Cc1nn(C)c2nnc(-c3ccccc3)c(Cl)c12  kinetic solubility (PBS; 2 h, pH 7.4): 105 µM (≈ 27.2 µg/mL)
O=C(c1ccc(-c2ccccc2)cc1)N1CCCCC1  kinetic solubility (PBS; 2 h, pH 7.4, 25 °C): 67 µM (≈ 17.8 µg/mL)
